Measurements from different studies.
Lines come from different studies, so protocols differ. Several values in a cell are separate wells, animals, samples, runs or records. ± gives the spread as reported.
Chain of UniProt Q96RR4 (whole entry, looked up): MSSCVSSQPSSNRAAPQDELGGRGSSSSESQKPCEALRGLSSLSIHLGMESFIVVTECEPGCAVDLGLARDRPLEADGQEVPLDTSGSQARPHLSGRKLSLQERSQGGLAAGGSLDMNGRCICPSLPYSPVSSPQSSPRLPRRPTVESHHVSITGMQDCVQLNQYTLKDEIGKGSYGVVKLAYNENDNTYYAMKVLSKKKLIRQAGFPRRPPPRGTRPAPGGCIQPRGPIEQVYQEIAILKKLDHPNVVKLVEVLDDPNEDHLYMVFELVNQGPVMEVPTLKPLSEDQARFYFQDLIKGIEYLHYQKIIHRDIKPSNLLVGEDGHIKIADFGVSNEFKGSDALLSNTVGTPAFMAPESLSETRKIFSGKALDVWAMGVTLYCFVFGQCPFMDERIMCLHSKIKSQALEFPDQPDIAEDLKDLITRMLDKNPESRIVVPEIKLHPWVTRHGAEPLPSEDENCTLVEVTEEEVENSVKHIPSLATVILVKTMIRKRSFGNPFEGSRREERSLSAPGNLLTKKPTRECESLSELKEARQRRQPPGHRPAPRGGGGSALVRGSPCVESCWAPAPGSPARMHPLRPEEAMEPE
Chain of UniProt Q9NZJ5 (whole entry, looked up): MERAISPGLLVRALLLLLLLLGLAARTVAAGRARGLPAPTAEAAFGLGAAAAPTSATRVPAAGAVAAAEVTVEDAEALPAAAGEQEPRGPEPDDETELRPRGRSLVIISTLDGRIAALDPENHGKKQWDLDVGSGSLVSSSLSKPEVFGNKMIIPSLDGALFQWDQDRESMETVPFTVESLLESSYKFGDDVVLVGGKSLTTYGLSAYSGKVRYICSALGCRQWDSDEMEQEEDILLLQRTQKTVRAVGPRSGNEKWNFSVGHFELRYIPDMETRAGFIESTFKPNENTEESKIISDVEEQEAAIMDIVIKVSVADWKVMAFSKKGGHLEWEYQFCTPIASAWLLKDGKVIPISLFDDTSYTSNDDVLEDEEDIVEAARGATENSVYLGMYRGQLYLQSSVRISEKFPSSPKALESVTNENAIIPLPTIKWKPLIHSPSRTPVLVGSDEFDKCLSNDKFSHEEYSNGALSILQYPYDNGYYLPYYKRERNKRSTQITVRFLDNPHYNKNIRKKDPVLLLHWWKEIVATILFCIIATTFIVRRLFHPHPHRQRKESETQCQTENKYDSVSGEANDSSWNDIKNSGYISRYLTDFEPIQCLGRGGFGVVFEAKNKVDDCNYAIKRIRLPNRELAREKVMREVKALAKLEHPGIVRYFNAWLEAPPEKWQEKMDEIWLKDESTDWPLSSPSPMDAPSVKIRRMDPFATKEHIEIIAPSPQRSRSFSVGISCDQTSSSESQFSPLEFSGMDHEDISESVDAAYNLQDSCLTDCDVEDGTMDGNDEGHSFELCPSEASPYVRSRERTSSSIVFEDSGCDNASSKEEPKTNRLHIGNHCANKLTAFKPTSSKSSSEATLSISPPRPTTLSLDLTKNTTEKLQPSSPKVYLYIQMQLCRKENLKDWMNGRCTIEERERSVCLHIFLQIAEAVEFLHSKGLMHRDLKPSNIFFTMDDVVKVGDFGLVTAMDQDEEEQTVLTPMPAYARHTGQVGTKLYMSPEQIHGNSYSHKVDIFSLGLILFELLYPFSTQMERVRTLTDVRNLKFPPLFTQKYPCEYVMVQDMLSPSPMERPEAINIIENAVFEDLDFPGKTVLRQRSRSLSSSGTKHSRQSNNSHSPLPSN
Chain of UniProt P08588 (whole entry, looked up): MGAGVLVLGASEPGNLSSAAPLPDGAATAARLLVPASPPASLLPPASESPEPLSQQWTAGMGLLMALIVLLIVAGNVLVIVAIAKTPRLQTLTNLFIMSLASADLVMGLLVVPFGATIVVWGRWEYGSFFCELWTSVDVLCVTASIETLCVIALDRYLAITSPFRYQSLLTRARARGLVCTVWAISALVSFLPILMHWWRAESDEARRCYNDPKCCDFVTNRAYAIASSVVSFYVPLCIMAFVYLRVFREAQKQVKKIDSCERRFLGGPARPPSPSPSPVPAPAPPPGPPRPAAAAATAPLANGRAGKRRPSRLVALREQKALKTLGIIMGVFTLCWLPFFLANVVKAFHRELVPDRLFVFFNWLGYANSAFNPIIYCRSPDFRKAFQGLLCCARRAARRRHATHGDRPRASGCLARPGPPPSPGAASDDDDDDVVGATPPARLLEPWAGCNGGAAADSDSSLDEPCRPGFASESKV
Chain of UniProt Q9UL54 (whole entry, looked up): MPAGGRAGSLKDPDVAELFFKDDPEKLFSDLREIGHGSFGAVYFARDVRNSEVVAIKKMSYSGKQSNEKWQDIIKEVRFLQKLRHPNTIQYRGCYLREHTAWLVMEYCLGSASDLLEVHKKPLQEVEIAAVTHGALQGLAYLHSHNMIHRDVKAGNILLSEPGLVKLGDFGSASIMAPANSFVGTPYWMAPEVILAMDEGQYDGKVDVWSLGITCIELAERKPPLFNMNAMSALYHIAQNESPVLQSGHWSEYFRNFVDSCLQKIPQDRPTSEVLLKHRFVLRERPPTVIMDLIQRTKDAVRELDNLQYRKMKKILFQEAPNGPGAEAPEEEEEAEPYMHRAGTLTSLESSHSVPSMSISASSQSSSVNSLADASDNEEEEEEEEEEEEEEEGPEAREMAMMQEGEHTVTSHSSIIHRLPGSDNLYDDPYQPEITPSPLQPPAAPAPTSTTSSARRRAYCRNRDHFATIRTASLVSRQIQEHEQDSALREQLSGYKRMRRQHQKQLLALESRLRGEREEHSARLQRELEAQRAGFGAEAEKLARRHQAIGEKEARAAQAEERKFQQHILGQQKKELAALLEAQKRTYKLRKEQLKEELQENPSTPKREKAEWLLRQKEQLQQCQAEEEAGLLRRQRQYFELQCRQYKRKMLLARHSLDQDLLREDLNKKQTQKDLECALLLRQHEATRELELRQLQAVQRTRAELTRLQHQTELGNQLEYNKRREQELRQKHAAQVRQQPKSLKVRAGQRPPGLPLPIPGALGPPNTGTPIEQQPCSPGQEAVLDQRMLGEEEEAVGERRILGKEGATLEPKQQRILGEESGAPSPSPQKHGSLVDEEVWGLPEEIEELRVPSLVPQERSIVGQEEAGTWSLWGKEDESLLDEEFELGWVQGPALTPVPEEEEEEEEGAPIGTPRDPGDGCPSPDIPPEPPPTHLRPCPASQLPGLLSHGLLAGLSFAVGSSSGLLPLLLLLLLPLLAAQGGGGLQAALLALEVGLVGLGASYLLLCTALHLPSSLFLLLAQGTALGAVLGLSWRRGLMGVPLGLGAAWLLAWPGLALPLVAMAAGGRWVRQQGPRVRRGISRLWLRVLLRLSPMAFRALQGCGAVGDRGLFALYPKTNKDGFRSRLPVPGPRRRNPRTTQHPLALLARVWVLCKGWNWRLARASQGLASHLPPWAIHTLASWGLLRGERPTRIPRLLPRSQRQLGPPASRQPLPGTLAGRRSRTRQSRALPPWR

Structure (SMILES) | tested on | assay | system | setting | how to read | measurement | value
CC=C1CNC2CC3(C(=O)N(OC)c4cc(OC)ccc43)C3CC1C2CO3 (stereo not shown) | Vero | CCK-8 | – | up to 100 µM, 24 h | – | viability | no effect
CC(C)[C@H]1NC(=O)C[C@H]2/C=C/CCSSC[C@@H](NC1=O)C(=O)N[C@H](Cc1cccc3ccccc13)C(=O)NCC(=O)O2 | EIF2AK3 (Homo sapiens, UniProt Q9NZJ5) | enzyme activity, inhibitor | – | 10 µM | – | inhibition | 7.1%
Cc1cc(Oc2nc(N3CC[C@@H](c4ccncc4)C3)ncc2F)[nH]n1 | Hs-578T | cell growth or viability | – | – | – | IC50 | > 100 µM
CC(C)CC(O)(CC(C)C)c1cn(C(=O)N2CCCC2)nn1 | mouse T-cells | SILAC proteomics, item: Paip2 | – | 1 nM, 6 h, single peptides, unit not given | relative to: DMSO | protein level | 0.7 and 0.9 and 1.11
O=C(O)c1ccc(-c2nc(-c3ccccc3Cl)c3sccn23)cc1 | HEL | flow cytometry, item: surface CD61 | – | 0.01 mM | higher = more expression | mean fluorescence intensity | 31600 a.u.
CC(=O)NCSC[C@H](NC(=O)[C@@H]1CCCN1C(=O)[C@H](C)NC(=O)[C@@H](NC(=O)CNC(=O)[C@@H](NC(=O)[C@H](Cc1c[nH]c2ccccc12)NC(=O)[C@H](C)NC(=O)CNC(=O)[C@H](CO)NC(=O)[C@H](C)NC(=O)[C@@H]1CCCN1C(=O)[C@H](Cc1c[nH]c2ccccc12)NC(=O)[C@H](C)NC(=O)[C@H](C)NC(=O)[C@@H](N)Cc1ccc(O)cc1)[C@@H](C)O)[C@@H](C)O)C(=O)N[C@@H](CO)C(=O)N[C@@H](C)C(=O)NCC(=O)N[C@H](C(=O)NCCOCCOCCOCCOCCOCCOCCOCCOCCOCCOCCOCCOCCC(=O)N[C@@H](CS)C(N)=O)[C@@H](C)O | HCC1359 lung squamous carcinoma | cell binding, phage binding, item: output/input phage | – | 10 min, 37 °C | relative to: control phage | selectivity ratio | 3.1 ± 0.75
CC(C)C12OC1C1OC13C1(C)CCC4=C(COC4=O)C1CC1OC13C2OC(=O)CCCOC1OC(CO)C(O)C(O)C1O (stereo not shown) | MDA-MB-453 | cell growth or viability, XTT | – | 47 h | – | IC50 | 0.53 µM
CS(C)(=O)=Nc1ccc(-c2ccc(-c3nc4cc(O[C@@H]5CO[C@H]6[C@@H]5OC[C@H]6O)[nH]c4cc3F)cc2)cc1 | TAOK2 (Homo sapiens, UniProt Q9UL54) | enzyme activity, inhibitor | – | 10 µM | – | inhibition | 1%
Cc1sc2c(c1C)C(c1ccc(Cl)cc1)=NC(CC(=O)OC(C)(C)C)c1nnc(C)n1-2 (stereo not shown) | ADRB1 (Homo sapiens, UniProt P08588) | ligand displacement, radioligand | – | 1 µM | – | remaining binding | 99.2%
CC(C)C[C@H](NC(=O)[C@H](CC(=O)O)NC(=O)CNC(=O)[C@@H](N)CCCNC(=N)N)C(=O)N[C@@H](C)C(=O)N[C@H](C(=O)N[C@@H](CC(C)C)C(=O)N[C@@H](CCCNC(=N)N)C(=O)N[C@@H](CCC(N)=O)C(=O)N[C@@H](CC(C)C)C(=O)N[C@@H](C)C(=O)N[C@@H](CCC(N)=O)C(=O)N[C@@H](CCC(=O)O)C(=O)N[C@@H](CC(=O)O)C(=O)NCC(=O)N[C@H](C(=O)N[C@H](C(=O)NCC(=O)N[C@H](C(=O)N[C@@H](CCCNC(=N)N)C(=O)NCCOCCOCCOCCOCCOCCOCCOCCOCCOCCOCCOCCOCCC(=O)N[C@@H](CS)C(N)=O)C(C)C)C(C)C)C(C)C)[C@@H](C)O | H2073 lung adenocarcinoma | cell binding, phage binding, item: output/input phage | – | 10 min, 37 °C | relative to: control phage | selectivity ratio | 54 ± 18
COc1ccc(NC(=O)c2ccc3[nH]c(-c4ccc(N(C)C)cc4)nc3c2)cn1 | HCT116 | IncuCyte | – | concentration not given, 32 (unit not given) | – | PI-positive cells | 171 count and 167 count and 223 count
NC(=O)N/N=C/c1ccc(OCc2cccc(F)c2)cc1 | IMR-32 | – | – | 100 µg/mL, 24 h | higher = more activity | catalase activity (OD450) | 0.038 a.u.
C#CCN1C(=O)C(CC#C)(C(=O)OCC)Oc2ccccc21 (stereo not shown) | HaCaT | cell growth or viability, CCK-8 | – | 0.78 µM, 72 h | – | inhibition | 0.27%
CC(C)CC(C(=O)N1CC2(CC1C#N)C(=O)Nc1ccccc12)N(C)C(=O)c1cc2c(F)cc(F)c(F)c2[nH]1 (stereo not shown) | Human coronavirus 229E | cytopathic effect | MRC5 | 516.5 pM | – | inhibition | 10.1%
COc1ccccc1-c1ccncc1C(=O)Nc1nnc(OCc2ccc(Cl)cc2)s1 | DLD-1 parental | – | – | 2 µM | relative to: untreated | colony survival | 98.6% and 95.2% and 97%
CC[C@H](C)[C@H](NC(=O)[C@H](CO)NC(=O)[C@H](Cc1ccc(O)cc1)NC(=O)[C@H](Cc1ccc(O)cc1)NC(=O)[C@H](CC(N)=O)NC(=O)CNC(=O)[C@H](CO)NC(=O)[C@H](Cc1ccc(O)cc1)NC(=O)[C@H](CO)NC(=O)[C@H](CO)NC(=O)[C@H](CC(N)=O)NC(=O)COCCOCCNC(=O)CN1CCN(CC(=O)O)CCN(CC(=O)O)CCN(CC(=O)O)CC1)C(=O)N[C@@H](CC(C)C)C(N)=O [copper-64 labelled] | – | dynamic PET | KPC mouse Ptf1a-CreER tdTomato, pancreas | intravenous, 4.6 MBq/mouse, 27.5 min, 84 d after tamoxifen | – | tissue uptake | 12.4 %ID/mL
CC(C)[C@H](NC(=O)[C@H](CCCNC(=N)N)NC(=O)[C@@H]1CCCN1C(=O)[C@@H](NC(=O)[C@H](C)NC(=O)[C@H](Cc1ccc(O)cc1)NC(=O)[C@H](CCC(N)=O)NC(=O)[C@H](CCCCN)NC(=O)[C@H](CCCNC(=N)N)NC(=O)[C@@H]1CCCN1C(=O)[C@H](CCC(=O)O)NC(=O)[C@@H](NC(=O)[C@H](C)N)[C@@H](C)O)[C@@H](C)O)C(=O)N[C@@H](Cc1ccccc1)C(=O)N[C@@H](Cc1c[nH]c2ccccc12)C(=O)N[C@H](C(=O)N[C@@H](CC(=O)O)C(=O)N[C@@H](C)C(=O)N1CCC[C@H]1C(=O)NCC(=O)NCCOCCOCCOCCOCCOCCOCCOCCOCCOCCOCCOCCOCCC(=O)N[C@@H](CS)C(N)=O)[C@@H](C)O | H1819 | phage binding | – | 10 min, 37 °C | relative to: control phage | selectivity ratio | 0.96 ± 0.098

Structure (SMILES) | tested on | assay | system | setting | how to read | measurement | value
CC(C)=CCc1c(O)cc2c(c1O)C(=O)CC(c1ccc(O)cc1)O2 (stereo not shown) | HeLa | cell growth or viability, MTT | – | 12.5 µM, 48 h | – | inhibition | 23.4%
CC(C)C12OC1C1OC13C1(C)CCC4=C(COC4=O)C1CC1OC13C2OC(=O)CCC(=O)OC1OC(CO)C(O)C(O)C1O (stereo not shown) | primary renal proximal tubule cells | cell viability, XTT | – | 47 h | – | IC50 | 4.83 µM
C=CCN1C(=O)C(CC=C)(C(=O)OCC)Oc2cc(F)ccc21 (stereo not shown) | HaCaT | cell growth or viability, CCK-8 | – | 50 µM, 72 h | – | inhibition | 0.58%
Cc1cc(C(=O)Nc2nc3cccc(C)c3n2[C@H]2CCCCN(C(=O)/C=C/CN(C)C)C2)ccn1 | Trypanosoma brucei | – | STIB795, mouse acute HAT model | oral, 2.5 mg/kg once daily for 4 days, day 0 | relative to: mice | survival | 100%
COc1ccccc1-c1n[nH]c2nc(N[C@H]3CC[C@H](NS(=O)(=O)CC(C)C)CC3)ncc12 | – | bead binding, competition bead pull-down, item: LINJ.03.0360 | Leishmania donovani extract | 10 µM | relative to: vehicle | relative abundance | 0.83
O=C1NC2(CC2)COc2ncc(F)cc2[C@H]2COCCN2c2ccn3ncc1c3n2 | – | – | Sprague-Dawley rat, male, serum | oral, 20 mg/kg/day, end of recovery, 4-week subacute toxicity | – | serum triglycerides | 0.69 ± 0.44 mmol/L
O=C(C[Se]C(=O)c1ccccc1)Nc1cccc(C(F)(F)F)c1 | NCI60 NSCLC subpanel mean | cell growth | – | – | – | TGI | 4.89 µM
CSCC[C@H](NC(=O)[C@@H](NC(=O)[C@H](CCC(N)=O)NC(=O)[C@H](CO)NC(=O)[C@@H](N)C(C)C)[C@@H](C)O)C(=O)N[C@@H](CCCNC(=N)N)C(=O)N[C@@H](CCC(N)=O)C(=O)N[C@H](C(=O)N[C@@H](C)C(=O)N[C@H](C(=O)N1CCC[C@H]1C(=O)N[C@@H](CC(C)C)C(=O)N[C@@H](CC(C)C)C(=O)N[C@@H](Cc1c[nH]c2ccccc12)C(=O)N[C@@H](Cc1ccccc1)C(=O)N[C@@H](Cc1c[nH]c2ccccc12)C(=O)N[C@H](C(=O)NCC(=O)N[C@@H](CO)C(=O)N[C@@H](CC(C)C)C(=O)NCCOCCOCCOCCOCCOCCOCCOCCOCCOCCOCCOCCOCCC(=O)N[C@@H](CS)C(N)=O)[C@@H](C)O)C(C)C)[C@@H](C)O | H2073 lung adenocarcinoma | cell binding, phage binding, item: output/input phage | – | 10 min, 37 °C | relative to: control phage | selectivity ratio | 21 ± 5.5
CC(C)(C)C(=O)OCOP(=O)(OCOC(=O)C(C)(C)C)C1CCCN(O)C1=O (stereo not shown) | MDA-MB-435 | – | – | – | – | GI50 | 0.955 µM
CCOC(=O)C1(Cc2ccccc2)Oc2cc(F)ccc2N(Cc2ccccc2)C1=O (stereo not shown) | HaCaT | cell growth or viability, CCK-8 | – | 1.56 µM, 72 h | – | inhibition | 0.21%
CSc1ccc2c(c1)c(CCN)c(C)n2Cc1ccc(Cl)cc1 | BV-2 | nuclear intensity, high-content imaging | – | geometric mean | – | IC50 | 5.09 µM
COc1ccccc1-c1n[nH]c2nc(NC3CCN(C(=O)Cc4ccc(F)cc4F)CC3)ncc12 | – | bead binding, competition bead pull-down, item: LINJ.30.3480 | Leishmania donovani extract | 10 µM | relative to: vehicle | relative abundance | 0.93
CC1CCC2C(C)C(OC(=O)CCC(=O)N3CCC(Nc4ccc(S(=O)(=O)NC(=O)c5ccc(N6CCN(CC7=C(c8ccc(Cl)cc8)CC(C)(C)CC7)CC6)cc5Oc5cnc6[nH]ccc6c5)cc4[N+](=O)[O-])CC3)OC3OC4(C)CCC1C32OO4 (stereo not shown) | THP-1 | annexin V/PI flow cytometry, item: annexin V-/PI- | – | 0.4 µM, 24 h | – | viable cells | 27.5%
CN(C)[C@H]1C[C@@]23CC[C@@]4(O2)C(=CC[C@]2(C)[C@@H](c5ccc6ccncc6c5)CC[C@H]24)C=C3[C@@H](O)[C@@H]1O | CAMKK2 (Homo sapiens, UniProt Q96RR4) | ATP probe labelling, inhibitor, KiNativ profiling | – | 1 µM | – | inhibition | -1.5%
NC(=S)N/N=C/c1ccc(OCc2ccccc2)cc1 | IMR-32 | – | – | 50 µg/mL, 24 h | higher = more activity | catalase activity (OD450) | 0.034 a.u.
Cc1cc(Nc2nc(C[C@@]3(C(=O)O)CCN(Cc4cccc(Cl)c4F)[C@H](C)C3)cc(C)c2F)[nH]n1 | Hs-578T | cell growth or viability, ATP luminescence | – | 5 days | – | IC50 | 0.0306 µM
CC(C)C[C@@H]1NC(=O)[C@@H](Cc2c[nH]c3ccccc23)NC(=O)[C@H](CCCNC(=N)N)NC(=O)[C@@H](CCC(=O)O)NC(=O)[C@H](CCC(N)=O)NC(=O)[C@@H](CCC(=O)O)NC(=O)[C@H](CCCNC(=N)N)NC(=O)[C@@H](Cc2c[nH]c3ccccc23)NC1=O | – | item: IL4 | LDLr-/- mouse on Western diet, liver | dose not given, 4 weeks | – | cytokine level | 13 ± 8.4 pg/g tissue

Repeated from above:
Structure (SMILES) | tested on | assay | system | setting | how to read | measurement | value
NC(=S)N/N=C/c1ccc(OCc2ccccc2)cc1 | IMR-32 | – | – | 50 µg/mL, 24 h | higher = more activity | catalase activity (OD450) | 0.034 a.u.
CC(C)C[C@H](NC(=O)[C@H](CC(=O)O)NC(=O)CNC(=O)[C@@H](N)CCCNC(=N)N)C(=O)N[C@@H](C)C(=O)N[C@H](C(=O)N[C@@H](CC(C)C)C(=O)N[C@@H](CCCNC(=N)N)C(=O)N[C@@H](CCC(N)=O)C(=O)N[C@@H](CC(C)C)C(=O)N[C@@H](C)C(=O)N[C@@H](CCC(N)=O)C(=O)N[C@@H](CCC(=O)O)C(=O)N[C@@H](CC(=O)O)C(=O)NCC(=O)N[C@H](C(=O)N[C@H](C(=O)NCC(=O)N[C@H](C(=O)N[C@@H](CCCNC(=N)N)C(=O)NCCOCCOCCOCCOCCOCCOCCOCCOCCOCCOCCOCCOCCC(=O)N[C@@H](CS)C(N)=O)C(C)C)C(C)C)C(C)C)[C@@H](C)O | H2073 lung adenocarcinoma | cell binding, phage binding, item: output/input phage | – | 10 min, 37 °C | relative to: control phage | selectivity ratio | 54 ± 18
O=C(C[Se]C(=O)c1ccccc1)Nc1cccc(C(F)(F)F)c1 | NCI60 NSCLC subpanel mean | cell growth | – | – | – | TGI | 4.89 µM
